Values quoted from earlier work, collected from citations in different studies.
± marks the error that the study gave.
OPRM1: Mu-type opioid receptor (OPRM1, Homo sapiens, UniProt P35372)
Chrna3/Chrnb2/Chrna6 with beta3 subunit: Chrna3/Chrnb2/Chrna6, with beta3 subunit (Rattus norvegicus, UniProt P04757+P12390+P43143)

Amino acid sequences for entries named in this document (tags omitted). Residues count along the entry.
UniProt P35372, whole entry: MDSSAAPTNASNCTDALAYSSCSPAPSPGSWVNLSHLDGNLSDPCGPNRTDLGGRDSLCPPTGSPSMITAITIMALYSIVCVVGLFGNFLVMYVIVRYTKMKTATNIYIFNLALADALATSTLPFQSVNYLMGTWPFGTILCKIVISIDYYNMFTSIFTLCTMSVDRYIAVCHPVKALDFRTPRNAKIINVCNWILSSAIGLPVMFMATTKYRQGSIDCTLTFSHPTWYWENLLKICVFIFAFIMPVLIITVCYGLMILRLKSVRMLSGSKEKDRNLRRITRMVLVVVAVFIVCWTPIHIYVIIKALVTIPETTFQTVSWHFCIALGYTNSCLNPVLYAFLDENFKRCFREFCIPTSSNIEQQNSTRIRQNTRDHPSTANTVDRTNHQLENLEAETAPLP
UniProt P04757, whole entry, looked up: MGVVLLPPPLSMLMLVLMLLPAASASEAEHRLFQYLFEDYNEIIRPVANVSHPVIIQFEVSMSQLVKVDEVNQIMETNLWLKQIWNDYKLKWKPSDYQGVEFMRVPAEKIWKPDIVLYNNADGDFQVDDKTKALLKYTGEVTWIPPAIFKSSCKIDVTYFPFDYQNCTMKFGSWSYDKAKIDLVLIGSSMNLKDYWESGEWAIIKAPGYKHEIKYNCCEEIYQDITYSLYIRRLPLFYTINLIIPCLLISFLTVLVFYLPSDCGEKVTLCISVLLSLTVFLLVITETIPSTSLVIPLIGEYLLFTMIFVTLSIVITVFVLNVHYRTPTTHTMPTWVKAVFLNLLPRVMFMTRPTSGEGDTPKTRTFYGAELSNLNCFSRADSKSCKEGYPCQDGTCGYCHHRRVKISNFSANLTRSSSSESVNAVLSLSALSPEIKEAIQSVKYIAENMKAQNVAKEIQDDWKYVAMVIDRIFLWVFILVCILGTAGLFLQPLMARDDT
UniProt P12390, whole entry, looked up: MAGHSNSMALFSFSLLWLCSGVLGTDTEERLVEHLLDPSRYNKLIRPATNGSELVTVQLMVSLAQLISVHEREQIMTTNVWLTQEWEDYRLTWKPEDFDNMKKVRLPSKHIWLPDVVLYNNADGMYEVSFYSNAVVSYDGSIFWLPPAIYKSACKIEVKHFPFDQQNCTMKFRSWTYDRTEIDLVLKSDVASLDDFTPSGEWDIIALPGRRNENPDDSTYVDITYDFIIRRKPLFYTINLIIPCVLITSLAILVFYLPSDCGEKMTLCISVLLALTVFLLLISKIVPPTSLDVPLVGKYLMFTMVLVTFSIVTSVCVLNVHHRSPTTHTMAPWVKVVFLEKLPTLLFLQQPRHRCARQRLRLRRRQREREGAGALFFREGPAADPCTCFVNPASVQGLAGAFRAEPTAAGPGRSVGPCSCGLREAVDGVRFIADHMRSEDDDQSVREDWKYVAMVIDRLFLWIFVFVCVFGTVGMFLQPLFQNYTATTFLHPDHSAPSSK
UniProt P43143, whole entry M241L/F253L/V303I/V320I/I327V/A333T/K339T, looked up: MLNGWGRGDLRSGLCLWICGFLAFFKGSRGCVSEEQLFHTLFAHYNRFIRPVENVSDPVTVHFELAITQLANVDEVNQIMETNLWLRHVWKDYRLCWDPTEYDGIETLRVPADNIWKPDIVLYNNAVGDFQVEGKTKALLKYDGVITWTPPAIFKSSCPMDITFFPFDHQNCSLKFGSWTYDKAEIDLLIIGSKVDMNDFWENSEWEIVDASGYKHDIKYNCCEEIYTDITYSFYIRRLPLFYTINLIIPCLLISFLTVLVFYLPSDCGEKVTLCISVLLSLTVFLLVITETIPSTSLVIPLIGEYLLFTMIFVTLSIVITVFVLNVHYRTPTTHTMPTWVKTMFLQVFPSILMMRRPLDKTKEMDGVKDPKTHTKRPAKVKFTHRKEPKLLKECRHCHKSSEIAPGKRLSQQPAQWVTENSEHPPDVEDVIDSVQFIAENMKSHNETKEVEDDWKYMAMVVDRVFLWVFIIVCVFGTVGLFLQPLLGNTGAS
UniProt Q62645, whole entry, looked up: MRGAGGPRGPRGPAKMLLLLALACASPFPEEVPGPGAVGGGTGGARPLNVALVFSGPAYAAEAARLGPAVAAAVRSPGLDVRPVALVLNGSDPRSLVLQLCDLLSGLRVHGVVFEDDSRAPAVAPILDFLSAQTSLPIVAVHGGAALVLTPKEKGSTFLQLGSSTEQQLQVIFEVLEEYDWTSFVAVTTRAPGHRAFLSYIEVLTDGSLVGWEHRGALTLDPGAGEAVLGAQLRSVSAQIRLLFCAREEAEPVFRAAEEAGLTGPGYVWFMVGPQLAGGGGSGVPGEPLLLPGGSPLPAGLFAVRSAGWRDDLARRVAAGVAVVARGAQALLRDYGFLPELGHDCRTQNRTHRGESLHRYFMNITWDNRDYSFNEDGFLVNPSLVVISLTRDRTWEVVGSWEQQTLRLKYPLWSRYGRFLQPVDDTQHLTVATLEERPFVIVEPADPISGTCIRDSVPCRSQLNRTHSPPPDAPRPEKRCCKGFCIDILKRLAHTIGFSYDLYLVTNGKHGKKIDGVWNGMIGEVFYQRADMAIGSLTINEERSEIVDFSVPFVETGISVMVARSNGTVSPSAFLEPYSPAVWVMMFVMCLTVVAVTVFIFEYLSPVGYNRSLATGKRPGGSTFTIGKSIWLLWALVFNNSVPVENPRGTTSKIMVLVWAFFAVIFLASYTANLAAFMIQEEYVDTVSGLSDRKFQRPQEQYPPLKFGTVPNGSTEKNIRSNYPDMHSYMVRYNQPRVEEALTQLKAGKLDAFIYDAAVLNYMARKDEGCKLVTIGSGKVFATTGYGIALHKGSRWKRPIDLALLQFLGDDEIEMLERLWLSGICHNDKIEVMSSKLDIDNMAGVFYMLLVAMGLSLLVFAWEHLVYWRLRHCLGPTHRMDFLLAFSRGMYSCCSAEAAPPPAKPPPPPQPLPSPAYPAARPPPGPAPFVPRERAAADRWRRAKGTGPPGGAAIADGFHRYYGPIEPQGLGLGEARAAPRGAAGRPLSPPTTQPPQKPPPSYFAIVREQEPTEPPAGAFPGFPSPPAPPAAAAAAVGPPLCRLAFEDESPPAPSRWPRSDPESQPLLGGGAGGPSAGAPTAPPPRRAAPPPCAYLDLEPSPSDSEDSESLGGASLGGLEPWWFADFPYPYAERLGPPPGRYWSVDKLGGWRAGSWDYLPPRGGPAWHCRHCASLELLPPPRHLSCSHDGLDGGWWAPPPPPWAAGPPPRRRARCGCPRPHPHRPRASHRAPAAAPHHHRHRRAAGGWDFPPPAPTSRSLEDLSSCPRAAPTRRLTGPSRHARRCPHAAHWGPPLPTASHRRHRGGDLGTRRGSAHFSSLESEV
UniProt P35462, whole entry: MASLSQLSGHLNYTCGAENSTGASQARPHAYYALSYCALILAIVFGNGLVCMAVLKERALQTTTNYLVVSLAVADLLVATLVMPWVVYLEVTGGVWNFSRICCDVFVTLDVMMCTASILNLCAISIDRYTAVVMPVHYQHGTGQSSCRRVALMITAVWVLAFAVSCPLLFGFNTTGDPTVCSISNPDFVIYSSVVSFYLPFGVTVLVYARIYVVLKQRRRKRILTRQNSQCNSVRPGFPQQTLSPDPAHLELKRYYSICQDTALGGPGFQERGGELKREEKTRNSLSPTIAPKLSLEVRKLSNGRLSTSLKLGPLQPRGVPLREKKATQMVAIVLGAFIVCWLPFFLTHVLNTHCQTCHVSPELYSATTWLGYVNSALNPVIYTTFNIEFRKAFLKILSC
UniProt P41145, whole entry: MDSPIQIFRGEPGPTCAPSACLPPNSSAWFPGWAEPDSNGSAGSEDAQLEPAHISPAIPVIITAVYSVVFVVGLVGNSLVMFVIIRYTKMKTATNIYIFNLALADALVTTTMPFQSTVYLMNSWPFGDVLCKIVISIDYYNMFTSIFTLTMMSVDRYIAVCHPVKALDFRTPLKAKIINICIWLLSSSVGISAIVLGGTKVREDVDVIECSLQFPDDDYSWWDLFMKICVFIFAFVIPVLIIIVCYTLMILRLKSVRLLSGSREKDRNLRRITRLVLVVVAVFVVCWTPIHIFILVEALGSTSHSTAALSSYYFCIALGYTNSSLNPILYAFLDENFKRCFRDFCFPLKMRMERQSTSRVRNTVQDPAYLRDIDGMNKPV
UniProt P22303, whole entry, looked up: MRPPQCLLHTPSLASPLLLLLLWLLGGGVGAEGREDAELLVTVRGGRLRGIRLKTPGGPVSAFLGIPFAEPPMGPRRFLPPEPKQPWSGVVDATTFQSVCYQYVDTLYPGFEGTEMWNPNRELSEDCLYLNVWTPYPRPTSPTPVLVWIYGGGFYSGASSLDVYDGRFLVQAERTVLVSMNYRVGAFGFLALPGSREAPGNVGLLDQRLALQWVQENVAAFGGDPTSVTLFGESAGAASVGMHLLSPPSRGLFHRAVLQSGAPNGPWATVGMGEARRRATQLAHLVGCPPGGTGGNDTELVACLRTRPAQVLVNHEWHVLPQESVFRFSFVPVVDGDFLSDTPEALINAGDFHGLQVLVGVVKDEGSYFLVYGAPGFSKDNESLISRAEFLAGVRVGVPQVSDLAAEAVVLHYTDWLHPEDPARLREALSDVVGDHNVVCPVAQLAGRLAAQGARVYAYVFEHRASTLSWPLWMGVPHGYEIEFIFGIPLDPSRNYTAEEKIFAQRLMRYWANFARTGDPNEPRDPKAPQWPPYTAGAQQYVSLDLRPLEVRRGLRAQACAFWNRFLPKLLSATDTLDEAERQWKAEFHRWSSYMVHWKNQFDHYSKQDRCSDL
UniProt O42275, whole entry, looked up: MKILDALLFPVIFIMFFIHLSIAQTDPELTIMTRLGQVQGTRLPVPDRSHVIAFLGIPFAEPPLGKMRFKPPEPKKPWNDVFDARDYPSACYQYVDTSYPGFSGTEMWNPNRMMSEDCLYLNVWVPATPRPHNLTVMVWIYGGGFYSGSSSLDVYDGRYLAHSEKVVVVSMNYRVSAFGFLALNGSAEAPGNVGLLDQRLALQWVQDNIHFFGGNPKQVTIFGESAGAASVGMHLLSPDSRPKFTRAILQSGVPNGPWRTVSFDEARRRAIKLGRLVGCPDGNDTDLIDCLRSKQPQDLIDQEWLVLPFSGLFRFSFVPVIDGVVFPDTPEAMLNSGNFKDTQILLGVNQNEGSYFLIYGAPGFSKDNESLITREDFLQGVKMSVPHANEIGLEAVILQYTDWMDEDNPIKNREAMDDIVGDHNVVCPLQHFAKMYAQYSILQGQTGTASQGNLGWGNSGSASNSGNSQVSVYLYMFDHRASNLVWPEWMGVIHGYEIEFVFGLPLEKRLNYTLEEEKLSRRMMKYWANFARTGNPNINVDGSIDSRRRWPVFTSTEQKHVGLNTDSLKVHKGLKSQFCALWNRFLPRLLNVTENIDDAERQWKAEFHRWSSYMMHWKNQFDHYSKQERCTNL
UniProt A0A0H2ZM50, 1-441: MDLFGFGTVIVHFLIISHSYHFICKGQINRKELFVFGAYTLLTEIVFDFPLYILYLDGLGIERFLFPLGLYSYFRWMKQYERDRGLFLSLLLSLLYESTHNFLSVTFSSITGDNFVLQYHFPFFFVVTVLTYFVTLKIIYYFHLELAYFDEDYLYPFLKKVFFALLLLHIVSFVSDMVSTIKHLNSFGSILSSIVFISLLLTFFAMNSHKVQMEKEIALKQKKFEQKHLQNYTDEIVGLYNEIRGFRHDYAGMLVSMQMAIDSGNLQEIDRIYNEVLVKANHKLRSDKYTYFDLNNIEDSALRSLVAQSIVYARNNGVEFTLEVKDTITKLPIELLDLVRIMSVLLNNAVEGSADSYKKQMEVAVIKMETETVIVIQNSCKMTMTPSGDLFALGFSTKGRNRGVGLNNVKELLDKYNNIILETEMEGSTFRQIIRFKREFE
UniProt P21554, whole entry: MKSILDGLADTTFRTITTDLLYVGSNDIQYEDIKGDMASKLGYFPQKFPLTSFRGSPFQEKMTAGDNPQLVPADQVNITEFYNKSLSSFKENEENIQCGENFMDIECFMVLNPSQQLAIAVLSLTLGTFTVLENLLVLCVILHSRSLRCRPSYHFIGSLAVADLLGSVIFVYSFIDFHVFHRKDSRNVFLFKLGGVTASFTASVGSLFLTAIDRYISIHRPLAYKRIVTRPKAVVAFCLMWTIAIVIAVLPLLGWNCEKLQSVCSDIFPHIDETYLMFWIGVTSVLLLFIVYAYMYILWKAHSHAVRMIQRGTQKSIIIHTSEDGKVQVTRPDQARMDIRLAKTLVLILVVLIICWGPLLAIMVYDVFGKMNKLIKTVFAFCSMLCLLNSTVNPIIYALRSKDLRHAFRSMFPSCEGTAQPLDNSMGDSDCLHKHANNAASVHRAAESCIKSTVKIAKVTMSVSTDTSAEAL
UniProt A0A0H2US84, 1-441: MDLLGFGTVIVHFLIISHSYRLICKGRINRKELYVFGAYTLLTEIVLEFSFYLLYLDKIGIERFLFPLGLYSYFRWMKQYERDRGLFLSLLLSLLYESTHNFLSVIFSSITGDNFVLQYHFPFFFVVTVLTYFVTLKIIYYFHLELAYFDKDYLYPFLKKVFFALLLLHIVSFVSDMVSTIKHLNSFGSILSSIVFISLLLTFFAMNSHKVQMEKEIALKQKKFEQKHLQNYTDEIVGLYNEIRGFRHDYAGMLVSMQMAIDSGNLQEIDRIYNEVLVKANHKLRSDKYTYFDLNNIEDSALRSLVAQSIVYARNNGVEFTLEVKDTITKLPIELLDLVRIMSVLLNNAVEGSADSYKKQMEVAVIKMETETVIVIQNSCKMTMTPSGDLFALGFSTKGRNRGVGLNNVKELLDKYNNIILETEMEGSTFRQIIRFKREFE

COc1ccc(OC[C@H]2c3cccn3CC(=O)N2Cc2cccc(F)c2)cc1 — doubling concentration improvement (Glutamate receptor ionotropic, NMDA 2D, with GluN1 (Rattus norvegicus, UniProt Q62645); positive allosteric modulator; concentration not given; relative to: (+)-CIQ): 15 fold
Clc1ccc(N2CCN(Cc3cnn4ccccc34)CC2)cc1 — Ki (D(3) dopamine receptor (DRD3, Homo sapiens, UniProt P35462); binding): 5 ± 0.121 µM
[3H]DAMGO — Kd (OPRM1; binding, radioligand, radioligand saturation binding): 0.00172 ± 0.000258 µM
COC(=O)[C@@H]1C[C@H](OC(=O)CSC#N)C(=O)[C@H]2[C@@]1(C)CC[C@H]1C(=O)O[C@H](c3ccoc3)C[C@]21C — Ki (Kappa-type opioid receptor (OPRK1, Homo sapiens, UniProt P41145); binding): 0.0006 ± 0.0002 µM
CC(C)C[C@@H]1NC(=O)[C@H](CCC(=O)O)NC(=O)[C@@H]2CCCN2C(=O)[C@H](Cc2c[nH]cn2)NC(=O)[C@H](CC(N)=O)NC(=O)[C@H](CC(C)C)NC(=O)[C@H](CO)NC(=O)[C@@H]2CSSC[C@H](NC(=O)CN)C(=O)N[C@@H](CSSC[C@@H](C(N)=O)NC1=O)C(=O)N[C@@H](CO)C(=O)N[C@@H](Cc1c[nH]cn1)C(=O)N1CCC[C@H]1C(=O)N[C@@H](C)C(=O)N2 — IC50 (Chrna3/Chrnb2/Chrna6 with beta3 subunit; antagonist): 0.0188 µM
dimethyl sulfoxide — Ki (Acetylcholinesterase (ACHE, Homo sapiens, UniProt P22303)): 88700 µM
NC(=O)c1ccc(-c2cc(C(=O)O)cc(-n3cc(-c4ccc(C(F)(F)F)cc4)nn3)c2)cc1 — half-life (simulated gastric fluid): > 4 h
CC(C)C[C@@H]1NC(=O)[C@H](CCC(=O)O)NC(=O)[C@@H]2CCCN2C(=O)[C@H](Cc2c[nH]cn2)NC(=O)[C@H](CC(N)=O)NC(=O)[C@H](C)NC(=O)[C@H](CO)NC(=O)[C@@H]2CSSC[C@H](NC(=O)CN)C(=O)N[C@@H](CSSC[C@@H](C(N)=O)NC1=O)C(=O)N[C@@H](CO)C(=O)N[C@@H](Cc1c[nH]cn1)C(=O)N1CCC[C@H]1C(=O)N[C@@H](C)C(=O)N2 — IC50 (Chrna3/Chrnb2/Chrna6 with beta3 subunit; antagonist): 0.0024 µM
NC(=O)[C@H](Cc1ccccc1)NC(=O)[C@H](CCCN=C(N)N)NC(=O)C12CC3CC(CC(C3)C1)C2 — Ki (OPRM1; binding): > 5 µM
CNC(=O)/C=C(\C)OP(=O)(OC)OC — IC50 (Acetylcholinesterase (ache, Electrophorus electricus, UniProt O42275); enzyme activity, inhibitor): ~10 µM
CN[C@@H](C)Cc1ccccc1 — EC50 (Sodium-dependent dopamine transporter (SLC6A3, Homo sapiens, UniProt Q01959); [3H]dopamine release, releaser; HEK293 expressing target): 0.435 µM
CC[C@H](C)[C@H](NC(=O)[C@H](CCCNC(=N)N)NC(=O)[C@H](CCSC)NC(=O)[C@@H](N)CCC(=O)O)C(=O)N[C@@H](CO)C(=O)N[C@@H](CCCNC(=N)N)C(=O)N[C@H](C(=O)N[C@H](C(=O)N[C@@H](CC(C)C)C(=O)N[C@@H](CC(=O)O)C(=O)N[C@@H](Cc1ccccc1)C(=O)N[C@@H](CC(C)C)C(=O)N[C@@H](Cc1ccccc1)C(=O)N[C@@H](CC(C)C)C(=O)N[C@@H](CCCNC(=N)N)C(=O)N[C@@H](CCCCN)C(=O)N[C@@H](CCCCN)C(=O)O)[C@@H](C)CC)[C@@H](C)CC — EC50 (Competence histidine kinase ComD (Streptococcus pneumoniae serotype 2, UniProt A0A0H2ZM50); reporter gene, agonist; Streptococcus pneumoniae, D39 pcomX::lacZ): 1.65 µM
CCOc1ccc(Cc2nc3cc(C(=O)N(CC)CC)ccc3n2CCC(C)C)cc1 — Ki (Cannabinoid receptor 1 (CNR1, Homo sapiens, UniProt P21554); binding): > 5 µM
CC[C@H](C)[C@H](NC(=O)[C@H](CCCNC(=N)N)NC(=O)[C@H](CCSC)NC(=O)[C@H](C)N)C(=O)N[C@@H](CO)C(=O)N[C@@H](CCCNC(=N)N)C(=O)N[C@H](C(=O)N[C@H](C(=O)N[C@@H](CC(C)C)C(=O)N[C@H](CC(=O)O)C(=O)N[C@@H](Cc1ccccc1)C(=O)N[C@@H](CC(C)C)C(=O)N[C@@H](Cc1ccccc1)C(=O)N[C@@H](CC(C)C)C(=O)N[C@@H](CCCNC(=N)N)C(=O)N[C@@H](CCCCN)C(=O)N[C@@H](CCCCN)C(=O)O)[C@@H](C)CC)[C@@H](C)CC — IC50 (Competence histidine kinase ComD (Streptococcus pneumoniae serotype 4, UniProt A0A0H2US84); reporter gene, antagonist; Streptococcus pneumoniae, TIGR4 pcomX::lacZ): 0.0565 µM
N#C/C=C/c1ccc2c(S(=O)(=O)n3nc(Nc4ccc(C#N)c(Cl)c4)nc3N)cccc2c1 — IC50 (Gag-Pol polyprotein, reverse transcriptase (gag-pol, Human immunodeficiency virus 1, UniProt P03366)): 0.23 µM

For quick reference, copied from above:
COc1ccc(OC[C@H]2c3cccn3CC(=O)N2Cc2cccc(F)c2)cc1 — doubling concentration improvement (Glutamate receptor ionotropic, NMDA 2D, with GluN1 (Rattus norvegicus, UniProt Q62645); positive allosteric modulator; concentration not given; relative to: (+)-CIQ): 15 fold
